Earlier results that unrelated publications cite.
Protocols differ between the studies behind these lines.

Compound | cell line | test | setting | EC50 [µM]
C[C@]12CC[C@@H]3c4cc(C56CC7CC(CC(C7)C5)C6)c(O)cc4CC[C@H]3[C@@H]1CCC2=O | HT-22 | cell protection | together with: iodoacetic acid 20 µM | 0.216
O=c1c(O)c(-c2ccc(O)c(O)c2)oc2cc(O)cc(O)c12 | PC-3 | cell viability, trypan blue |  | ~29
C[C@]12CC=C3c4ccc(O)cc4CC[C@H]3[C@@H]1CC[C@@H]2O | HT-22 | cell protection | together with: glutamate 20 mM | 1.57
CC[C@H](CO)Nc1nc(Nc2cccc(-c3ccccn3)c2)c2ncn(C(C)C)c2n1 | SH-SY5Y | cell growth |  | 17.2
FC(F)(F)Oc1ccc(Nc2cc(NCCN3CCOCC3)ncn2)cc1 | Bcr-Abl transformed cells |  |  | 1
C/C(=C\COP(=O)(O)OP(=O)(O)O)CO | Vgamma9Vdelta2 T cells with loaded K562 | interferon gamma release, activator | 1 h | > 100
C[C@]12CC[C@@H]3c4ccc(O)cc4CC[C@H]3[C@@H]1CC[C@@H]2O | MCF7 | gene transcription, measured: GREB1 and MYC |  | 6e-06 to 1e-05
O=c1cc(COc2cc(Cl)cc(Cl)c2)[nH][nH]1 | PC-12 expressing SOD1 G93A | cytoprotection |  | 0.067
COc1ccc(N(C)c2nc(C)nc3[nH]ccc23)cc1 | A10 | microtubule depolymerization |  | 5.8
C[C@]12CC[C@@H]3c4ccc(O)cc4CC[C@H]3[C@@H]1CC1(CCCC1)C2=O | HT-22 | cell protection | together with: glutamate 20 mM | 10
COc1cccc(OCCCN)c1-c1cc(Nc2cnc(C#N)cn2)n[nH]1 | neuroblastoma cells | cell proliferation |  | < 0.001
C[C@@H]1CN([C@@H](C)CO)C(=O)c2cccc(NC(=O)Nc3cccc4ccccc34)c2O[C@H]1CN(C)S(=O)(=O)c1ccc2c(c1)OCCO2 | INS-1E cells | cytokine-induced apoptosis, inhibitor | together with: TNF-alpha, IL-1beta and IFN-gamma | 0.78

Some of these lines once more:
Compound | cell line | test | setting | EC50 [µM]
O=c1c(O)c(-c2ccc(O)c(O)c2)oc2cc(O)cc(O)c12 | PC-3 | cell viability, trypan blue |  | ~29
